Literature values as cited in several papers.
Compare with care: the assays were run in different laboratories. Converted amounts (≈) assume the structure as drawn.
lasR: Transcriptional activator protein LasR (lasR, Pseudomonas aeruginosa, UniProt P25084)
Sequence of UniProt P25084 (whole entry, looked up): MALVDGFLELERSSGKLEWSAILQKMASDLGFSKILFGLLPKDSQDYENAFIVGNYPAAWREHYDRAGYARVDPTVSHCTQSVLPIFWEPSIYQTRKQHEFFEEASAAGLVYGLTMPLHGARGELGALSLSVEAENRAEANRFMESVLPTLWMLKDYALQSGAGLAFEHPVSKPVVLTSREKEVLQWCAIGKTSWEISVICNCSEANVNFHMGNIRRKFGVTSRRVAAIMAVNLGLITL

N#Cc1ccnc(N2C(=O)CC[C@H]2C(=O)N(c2cncc(F)c2)[C@H](C(=O)NC2CC(F)(F)C2)c2ccccc2Cl)c1: “rate, progression-free survival, 6 month” 40% (pretreated mIDH1 cholangiocarcinoma patients; dose not given, trial).
Cc1ccc(Cn2cc(C(=O)NCCOCCO)c(=O)c3cc(C(=O)/C=C/c4ccc([N+](=O)[O-])o4)ccc32)cc1 gave an EC50 of 0.08 µM (Trypanosoma brucei brucei; parasite growth).
CC[C@H](C)[C@H](NC(=O)CNC(=O)[C@@H](NC(=O)CNC(=O)[C@@H](NC(=O)CNC(=O)[C@@H](NC(=O)[C@@H](NC(=O)[C@H](CCC(N)=O)NC(=O)[C@H](CCC(=O)O)NC(=O)[C@@H](NC(=O)[C@H](CC(C)C)NC(=O)[C@H](CCCNC(=N)N)NC(=O)[C@H](Cc1ccccc1)NC(=O)[C@@H](NC(=O)[C@H](CC(N)=O)NC(=O)[C@H](CCCCN)NC(=O)CNC(=O)[C@H](CCSC)NC(=O)[C@H](CCCCN)NC(=O)CNC(=O)[C@H](CC(C)C)NC(=O)[C@H](CCCCN)NC(=O)[C@H](CCCCN)NC(=O)CNC(=O)[C@H](Cc1ccccc1)NC(=O)[C@H](CCCCN)NC(=O)[C@H](CCCCN)NC(=O)[C@H](CC(C)C)NC(=O)[C@H](Cc1c[nH]c2ccccc12)NC(=O)CN)C(C)C)C(C)C)C(C)C)C(C)C)C(C)C)C(C)C)C(=O)N[C@@H](CC(N)=O)C(=O)N[C@@H](C)C(=O)N[C@@H](CC(C)C)C(=O)N[C@@H](CO)C(=O)O gave an MIC of 16 µM (≈ 60.1 µg/mL) (Pseudomonas aeruginosa).
CN(C(=O)[C@H](Cc1ccccc1)NC(=O)Cc1c[nH]c2ccc(O)cc12)c1ccc(Cl)cc1 gave a ΔTm of 6.6 °C (HIV-1 capsid hexamer wild type).
With Nc1nc2sc(CCCCc3ccc(C(=O)N[C@@H](CCC(=O)O)C(=O)O)cc3)cc2c(=O)[nH]1 the IC50 was 0.009 µM (CHO RT16 (human FRα); cell growth; no added folic acid).
For COc1cc2c(cc1-n1ccnc1)C[C@H]1[C@H]3CCCC[C@@]23CCN1C, the half-life was 14.6 min (metabolic stability; mouse liver microsomes).
CC(=O)OC12COC1CC(O)C1(C)C(=O)C(OC(=O)N(C)C)C3=C(C)C(OC(=O)C(O)C(C=C(C)C)NC(=O)OC(C)(C)C)CC(O)(C(OC(=O)c4cccc(OC(F)F)c4)C21)C3(C)C (stereo not shown) gave an IC50 of 0.00056 µM (MCF7; cytotoxicity).
CC[C@H](C)[C@H](NC(=O)[C@H](CCCNC(=N)N)NC(=O)[C@@H]1CCCN1C(=O)[C@H](CCCNC(=N)N)NC(=O)[C@H](Cc1ccccc1)NC(=O)[C@H](Cc1c[nH]cn1)NC(=O)[C@H](CCCNC(=N)N)NC(=O)[C@H](CC(C)C)NC(=O)[C@H](CCCCN)NC(=O)CNC(=O)[C@H](CC(C)C)NC(=O)[C@H](Cc1ccccc1)NC(=O)[C@H](CCCNC(=N)N)NC(=O)CNC(=O)[C@H](Cc1ccccc1)NC(=O)[C@H](CCCNC(=N)N)NC(=O)CNC(=O)[C@H](CCCNC(=N)N)NC(=O)[C@H](CCC(N)=O)NC(=O)[C@@H](NC(=O)[C@@H](N)CC(C)C)[C@@H](C)CC)C(=O)N[C@@H](CCCCN)C(=O)N[C@@H](Cc1ccccc1)C(=O)N[C@@H](CCCCN)C(=O)NCC(=O)N[C@@H](CCCCN)C(=O)N[C@@H](C)C(=O)NCC(=O)N[C@@H](Cc1c[nH]c2ccccc12)C(=O)N[C@H](C(=O)N[C@H](C(=O)NCC(=O)O)C(C)C)[C@@H](C)O has an MIC of 64 µM (≈ 242 µg/mL) (Escherichia coli).
The IC50 of CCN(CC)CCCNC(=O)c1cn(CCCc2ccccc2)c2cc(Cl)ccc2c1=O is reported as 4.87 to 6.82 µM (several cancer cell lines; range over cell lines).
The EC50 of O=S(=O)(c1ccc(-c2ccc3ncnc(Nc4ccc(OCc5cccc(Cl)c5)c(Cl)c4)c3c2)cc1)N1CCOCC1 is reported as 0.66 µM (Trypanosoma brucei; parasite growth).
CC[C@H](C)[C@H](NC(=O)CNC(=O)[C@H](CC(=O)O)NC(=O)[C@H](CCCNC(=N)N)NC(=O)[C@@H](NC(=O)[C@H](CC(N)=O)NC(=O)[C@H](CCCNC(=N)N)NC(=O)CNC(=O)[C@@H](NC(=O)[C@H](CCCCN)NC(=O)[C@H](CCC(=O)O)NC(=O)[C@H](CC(C)C)NC(=O)[C@H](CCCCN)NC(=O)[C@H](CCCCN)NC(=O)[C@H](Cc1c[nH]c2ccccc12)NC(=O)[C@H](CO)NC(=O)[C@@H]1CCCN1)C(C)C)[C@@H](C)CC)C(=O)N[C@H](C(=O)N[C@@H](CCCCN)C(=O)N[C@@H](C)C(=O)NCC(=O)N1CCC[C@H]1C(=O)N[C@H](C(=O)N[C@H](C(=O)N[C@@H](CCC(=O)O)C(=O)N[C@H](C(=O)N[C@@H](CC(C)C)C(=O)NCC(=O)O)C(C)C)C(C)C)C(C)C)[C@@H](C)CC gave an MIC of 4 µM (≈ 12.2 µg/mL) (Escherichia coli).
With O=C(Nc1ccccc1NC(=O)c1cccc(Cl)c1)c1cccc(Cl)c1 the maximal inhibition was 90% (lasR; rsaL-yfp reporter, inhibitor; PAO-MW1).
CC(C)[C@H](NC(=O)[C@H](CCCNC(=N)N)NC(=O)[C@H](Cc1ccccc1)NC(=O)[C@H](CS)NC(=O)[C@H](Cc1c[nH]c2ccccc12)NC(=O)[C@@H](N)CCCCN)C(=O)N[C@@H](CS)C(=O)N[C@@H](Cc1c[nH]c2ccccc12)C(=O)N[C@@H](CCCNC(=N)N)C(=O)N[C@@H](Cc1c[nH]c2ccccc12)C(=O)N[C@@H](Cc1ccccc1)C(=O)N[C@@H](CS)C(=O)N[C@@H](Cc1c[nH]c2ccccc12)C(=O)N[C@@H](CCCNC(=N)N)C(=O)N[C@@H](CCCCN)C(=O)N[C@@H](CS)C(=O)N[C@@H](CCCNC(=N)N)C(=O)O has an MIC of 32 µM (≈ 78.4 µg/mL) (Pseudomonas aeruginosa).
With CCCCCCC#Cc1cncc(-c2nnc(SCc3ccc([N+](=O)[O-])o3)n2C)c1 the IC50 was 0.6 µM (Mycobacterium tuberculosis; MABA; Erdman wild type).
For CN1CC[C@]23c4c5ccc(O)c4O[C@H]2[C@H](O)CC[C@@]3(O)[C@H]1C5, the ED50 was 1.7 mg/kg (analgesia, Haffner tail-clip test; mouse; subcutaneous).
CCCCCCC#Cc1cncc(-c2nnc(SCc3ccc(Cl)cc3)n2C)c1 gave an IC50 of 5.3 µM (Mycobacterium tuberculosis; MABA; Erdman wild type).
Under “concentration for inward current”, COC1C2(O)C(=O)N3C=CC(C)(C)c4[nH]c5ccccc5c4C=C3C(=O)N2C23C(C)C(C)(C)N2c2ccccc2C13O (stereo not shown) is recorded as ≥ 300 nM (GABA-gated chloride channel, Bombyx mori; larval neurons; blocked by fipronil).
With CCCCCCCCCNC(=O)CC(=O)c1ccccc1 the maximal inhibition was 75% (lasR; rsaL-yfp reporter, inhibitor; PAO-MW1).
COc1ccc2nnn(CC(=O)N(Cc3ccccn3)c3ccc(C4CCNCC4)cc3)c2c1 gave an inhibition of 94.8% (main protease (Mpro); 50 µM).
For CC(=O)OC12COC1CC(O)C1(C)C(=O)C(OC(=O)C3CC3)C3=C(C)C(OC(=O)C(O)C(C=C(C)C)NC(=O)OC(C)(C)C)CC(O)(C(OC(=O)c4cccc(OC(F)F)c4)C21)C3(C)C (stereo not shown), the IC50 was 0.00039 µM (CFPAC-1; cytotoxicity).
CC[C@H](C)[C@H](NC(=O)[C@@H]1CCCN1C(=O)[C@H](CS)NC(=O)[C@H](Cc1ccc(O)cc1)NC(=O)[C@@H]1CCCN1C(=O)[C@H](CC(C)C)NC(=O)[C@H](CCCNC(=N)N)NC(=O)[C@H](CO)NC(=O)[C@H](Cc1ccc(O)cc1)NC(=O)[C@H](Cc1ccccc1)NC(=O)[C@H](CC(N)=O)NC(=O)[C@H](CCCNC(=N)N)NC(=O)[C@H](CS)NC(=O)[C@H](Cc1ccc(O)cc1)NC(=O)[C@H](CO)NC(=O)CNC(=O)[C@H](CO)NC(=O)[C@@H]1CCCN1C(=O)[C@H](CC(C)C)NC(=O)[C@H](Cc1ccc(O)cc1)NC(=O)[C@H](C)NC(=O)[C@@H]1CCCN1C(=O)[C@H](CCCNC(=N)N)NC(=O)CN)C(=O)N[C@@H](CCCNC(=N)N)C(=O)NCC(=O)NCC(=O)N[C@@H](Cc1c[nH]cn1)C(=O)N[C@@H](CS)C(=O)N[C@@H](CCCNC(=N)N)C(=O)O has an MIC of 32 µM (≈ 110 µg/mL) (Pseudomonas aeruginosa).
The inhibition of Cc1ccncc1CC(=O)Nc1cccc2c1CNCC2 is reported as -1.08% (main protease (Mpro); 20 µM).

Repeated from above:
CN(C(=O)[C@H](Cc1ccccc1)NC(=O)Cc1c[nH]c2ccc(O)cc12)c1ccc(Cl)cc1 gave a ΔTm of 6.6 °C (HIV-1 capsid hexamer wild type).
CCCCCCC#Cc1cncc(-c2nnc(SCc3ccc(Cl)cc3)n2C)c1 gave an IC50 of 5.3 µM (Mycobacterium tuberculosis; MABA; Erdman wild type).
